Measured values of several laboratories.
Lines come from different studies, so protocols differ. “And” joins repeats or separate records; there may be more than shown. ± gives the spread as reported.
FPR1: fMet-Leu-Phe receptor (FPR1, Homo sapiens, UniProt P21462)
ESR1: Estrogen receptor (ESR1, Homo sapiens, UniProt P03372)
Chain of UniProt P03372 (whole entry, looked up): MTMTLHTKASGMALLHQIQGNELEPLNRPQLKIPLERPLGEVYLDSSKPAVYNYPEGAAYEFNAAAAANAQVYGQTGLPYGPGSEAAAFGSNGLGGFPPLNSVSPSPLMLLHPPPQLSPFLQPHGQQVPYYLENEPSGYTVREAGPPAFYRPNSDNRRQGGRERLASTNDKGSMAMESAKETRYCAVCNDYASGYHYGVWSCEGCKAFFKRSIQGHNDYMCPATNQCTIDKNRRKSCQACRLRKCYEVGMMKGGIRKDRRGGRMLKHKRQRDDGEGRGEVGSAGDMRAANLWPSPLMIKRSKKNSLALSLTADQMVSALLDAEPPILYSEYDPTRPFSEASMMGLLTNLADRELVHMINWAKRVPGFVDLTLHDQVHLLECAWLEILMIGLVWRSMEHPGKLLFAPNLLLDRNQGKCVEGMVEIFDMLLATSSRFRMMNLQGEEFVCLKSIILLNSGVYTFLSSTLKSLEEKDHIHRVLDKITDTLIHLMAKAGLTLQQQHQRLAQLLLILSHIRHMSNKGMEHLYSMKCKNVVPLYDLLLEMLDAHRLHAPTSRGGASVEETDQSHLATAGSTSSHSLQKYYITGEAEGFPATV
C3AR1: C3a anaphylatoxin chemotactic receptor (C3AR1, Homo sapiens, UniProt Q16581)
Chain of UniProt Q16581 (whole entry, looked up): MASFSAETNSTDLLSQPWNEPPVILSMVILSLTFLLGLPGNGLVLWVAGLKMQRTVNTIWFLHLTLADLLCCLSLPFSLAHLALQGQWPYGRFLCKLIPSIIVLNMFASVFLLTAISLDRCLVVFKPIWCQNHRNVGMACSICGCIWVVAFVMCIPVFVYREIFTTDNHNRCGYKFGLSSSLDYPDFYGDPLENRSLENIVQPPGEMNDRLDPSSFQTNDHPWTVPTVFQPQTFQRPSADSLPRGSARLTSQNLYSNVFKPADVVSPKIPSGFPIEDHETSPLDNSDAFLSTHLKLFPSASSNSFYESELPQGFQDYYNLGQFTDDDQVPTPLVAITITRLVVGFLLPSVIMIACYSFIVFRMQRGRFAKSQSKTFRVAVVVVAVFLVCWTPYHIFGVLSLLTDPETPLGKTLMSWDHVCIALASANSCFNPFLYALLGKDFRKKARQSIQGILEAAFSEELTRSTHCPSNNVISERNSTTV
ADORA1: Adenosine receptor A1 (ADORA1, Homo sapiens, UniProt P30542)
Chain of UniProt P30542 (whole entry, looked up): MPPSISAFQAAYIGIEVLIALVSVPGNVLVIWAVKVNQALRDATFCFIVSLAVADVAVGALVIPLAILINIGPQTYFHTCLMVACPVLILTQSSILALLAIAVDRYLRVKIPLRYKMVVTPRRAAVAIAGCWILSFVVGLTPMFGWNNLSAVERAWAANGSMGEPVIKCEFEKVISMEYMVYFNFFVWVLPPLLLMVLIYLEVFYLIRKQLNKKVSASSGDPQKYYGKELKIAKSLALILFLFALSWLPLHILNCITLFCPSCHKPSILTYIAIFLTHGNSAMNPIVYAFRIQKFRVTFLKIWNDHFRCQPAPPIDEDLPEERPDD
Chain of UniProt Q61143 (whole entry, unmodified, looked up): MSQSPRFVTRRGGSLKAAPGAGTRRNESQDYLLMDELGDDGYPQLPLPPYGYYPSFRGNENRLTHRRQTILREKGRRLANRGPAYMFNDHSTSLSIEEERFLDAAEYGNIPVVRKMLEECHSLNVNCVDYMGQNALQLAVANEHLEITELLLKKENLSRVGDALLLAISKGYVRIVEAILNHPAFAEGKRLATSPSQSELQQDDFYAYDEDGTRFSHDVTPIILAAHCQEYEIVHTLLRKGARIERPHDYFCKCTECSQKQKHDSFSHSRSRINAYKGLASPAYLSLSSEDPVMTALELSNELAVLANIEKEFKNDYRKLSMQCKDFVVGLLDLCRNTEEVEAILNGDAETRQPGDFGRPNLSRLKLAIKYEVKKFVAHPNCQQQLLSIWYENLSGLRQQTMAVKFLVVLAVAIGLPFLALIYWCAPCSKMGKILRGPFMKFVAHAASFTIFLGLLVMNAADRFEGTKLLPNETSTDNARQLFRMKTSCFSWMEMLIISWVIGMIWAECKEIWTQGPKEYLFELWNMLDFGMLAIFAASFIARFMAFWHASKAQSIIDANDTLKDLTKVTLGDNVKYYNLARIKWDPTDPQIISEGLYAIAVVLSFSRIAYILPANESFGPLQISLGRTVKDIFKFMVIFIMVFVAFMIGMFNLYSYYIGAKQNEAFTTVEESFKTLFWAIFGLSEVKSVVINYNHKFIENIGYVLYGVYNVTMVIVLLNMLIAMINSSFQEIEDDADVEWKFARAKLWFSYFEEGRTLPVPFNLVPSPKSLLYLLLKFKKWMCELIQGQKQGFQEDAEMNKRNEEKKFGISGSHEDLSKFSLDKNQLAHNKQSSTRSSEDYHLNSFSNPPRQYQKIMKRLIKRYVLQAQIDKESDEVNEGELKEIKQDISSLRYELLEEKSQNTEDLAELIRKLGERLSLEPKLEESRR
Chain of UniProt P41968 (whole entry, unmodified, looked up): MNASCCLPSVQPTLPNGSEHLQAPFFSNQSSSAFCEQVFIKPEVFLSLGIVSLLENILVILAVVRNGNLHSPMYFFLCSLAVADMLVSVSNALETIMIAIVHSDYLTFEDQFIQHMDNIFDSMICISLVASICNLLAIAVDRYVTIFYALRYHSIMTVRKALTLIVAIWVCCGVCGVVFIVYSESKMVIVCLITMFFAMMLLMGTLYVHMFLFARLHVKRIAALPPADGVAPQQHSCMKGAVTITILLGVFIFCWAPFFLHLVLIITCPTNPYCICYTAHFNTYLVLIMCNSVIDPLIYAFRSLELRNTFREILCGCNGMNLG
Chain of UniProt P19793 (whole entry, looked up): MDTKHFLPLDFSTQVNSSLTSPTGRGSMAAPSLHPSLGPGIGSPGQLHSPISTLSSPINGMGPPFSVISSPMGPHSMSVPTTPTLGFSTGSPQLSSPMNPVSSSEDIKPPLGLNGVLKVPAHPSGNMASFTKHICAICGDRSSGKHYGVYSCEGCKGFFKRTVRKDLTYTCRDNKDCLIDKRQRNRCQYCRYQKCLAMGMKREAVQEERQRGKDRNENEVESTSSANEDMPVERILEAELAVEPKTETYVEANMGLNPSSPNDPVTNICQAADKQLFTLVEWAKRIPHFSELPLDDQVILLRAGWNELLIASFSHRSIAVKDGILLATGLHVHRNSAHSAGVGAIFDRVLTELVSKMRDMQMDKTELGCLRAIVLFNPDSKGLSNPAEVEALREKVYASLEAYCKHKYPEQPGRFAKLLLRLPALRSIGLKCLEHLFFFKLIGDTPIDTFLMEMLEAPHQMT
Chain of UniProt P14867 (whole entry, looked up): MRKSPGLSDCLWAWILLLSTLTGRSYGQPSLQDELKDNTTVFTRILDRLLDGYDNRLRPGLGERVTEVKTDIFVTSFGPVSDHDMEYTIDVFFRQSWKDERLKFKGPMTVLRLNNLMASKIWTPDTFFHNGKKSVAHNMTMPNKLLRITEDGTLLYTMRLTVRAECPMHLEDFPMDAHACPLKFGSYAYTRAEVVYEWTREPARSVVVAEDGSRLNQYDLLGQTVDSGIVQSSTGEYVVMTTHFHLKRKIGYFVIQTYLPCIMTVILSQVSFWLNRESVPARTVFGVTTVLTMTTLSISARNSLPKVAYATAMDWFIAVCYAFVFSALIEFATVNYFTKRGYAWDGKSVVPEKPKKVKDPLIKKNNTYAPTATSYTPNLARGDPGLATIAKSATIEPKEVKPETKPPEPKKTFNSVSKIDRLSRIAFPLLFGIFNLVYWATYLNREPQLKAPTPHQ
Chain of UniProt P47870 (whole entry, looked up): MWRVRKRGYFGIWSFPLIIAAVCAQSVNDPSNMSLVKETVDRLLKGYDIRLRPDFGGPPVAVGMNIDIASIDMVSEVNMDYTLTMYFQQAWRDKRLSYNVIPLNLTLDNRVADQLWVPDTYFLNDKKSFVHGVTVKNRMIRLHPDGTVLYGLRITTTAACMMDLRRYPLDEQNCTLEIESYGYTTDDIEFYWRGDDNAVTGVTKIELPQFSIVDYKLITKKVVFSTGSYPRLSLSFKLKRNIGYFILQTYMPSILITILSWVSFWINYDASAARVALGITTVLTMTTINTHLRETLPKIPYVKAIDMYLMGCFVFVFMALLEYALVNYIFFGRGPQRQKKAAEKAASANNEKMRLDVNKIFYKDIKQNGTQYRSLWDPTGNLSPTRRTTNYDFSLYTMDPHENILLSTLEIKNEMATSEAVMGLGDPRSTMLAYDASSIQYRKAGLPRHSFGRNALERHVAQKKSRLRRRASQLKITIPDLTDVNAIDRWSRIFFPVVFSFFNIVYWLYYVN
Chain of UniProt O60894 (whole entry, looked up): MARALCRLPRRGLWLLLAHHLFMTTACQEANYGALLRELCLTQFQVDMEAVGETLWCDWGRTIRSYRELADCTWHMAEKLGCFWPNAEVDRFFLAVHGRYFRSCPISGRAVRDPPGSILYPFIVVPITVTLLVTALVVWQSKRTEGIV
Chain of UniProt P48039 (whole entry, looked up): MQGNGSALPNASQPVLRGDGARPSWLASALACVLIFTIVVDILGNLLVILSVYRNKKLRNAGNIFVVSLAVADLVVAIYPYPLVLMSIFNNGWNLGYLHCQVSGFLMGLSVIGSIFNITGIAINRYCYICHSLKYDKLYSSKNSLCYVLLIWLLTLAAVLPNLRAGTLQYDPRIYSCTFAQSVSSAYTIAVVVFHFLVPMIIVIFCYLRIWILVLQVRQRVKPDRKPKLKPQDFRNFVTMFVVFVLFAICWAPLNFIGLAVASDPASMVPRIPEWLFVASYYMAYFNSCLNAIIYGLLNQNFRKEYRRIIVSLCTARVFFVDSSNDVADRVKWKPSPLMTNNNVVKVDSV
Chain of UniProt P49685 (whole entry, looked up): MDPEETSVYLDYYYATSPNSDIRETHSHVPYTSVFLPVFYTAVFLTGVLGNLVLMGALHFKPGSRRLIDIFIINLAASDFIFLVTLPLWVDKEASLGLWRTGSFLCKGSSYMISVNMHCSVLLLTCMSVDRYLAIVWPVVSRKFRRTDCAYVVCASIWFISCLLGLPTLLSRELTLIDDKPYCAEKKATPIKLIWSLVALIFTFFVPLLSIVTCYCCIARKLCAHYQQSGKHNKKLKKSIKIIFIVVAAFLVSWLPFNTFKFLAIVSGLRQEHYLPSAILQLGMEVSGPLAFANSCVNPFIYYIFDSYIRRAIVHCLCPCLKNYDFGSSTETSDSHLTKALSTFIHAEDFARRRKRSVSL

C=CCc1cccc(-c2cc(/C=C/C(=O)O)ccc2O)c1 — EC50 (Retinoic acid receptor RXR-alpha, with NURR1 (RXRA, Homo sapiens, UniProt P19793)): 2.51 nM
CSCC[C@H](NC(=O)CNC(=O)[C@H](CCCCN)NC(=O)[C@@H](N)Cc1c[nH]c2ccccc12)C(=O)N[C@H](C(=O)N[C@H](CCSC)C(N)=O)C(C)C — EC50 (FPR1; binding, flow cytometry competition; U-937; 4 °C, together with: 5 nM WK(FL)YMVm probe): no binding
CSCC[C@H](NC(=O)[C@H](CC(C)C)NC(=O)[C@H](CCC(N)=O)NC(=O)[C@H](Cc1c[nH]c2ccccc12)NC(=O)[C@H](CC(C)C)NC(=O)[C@H](CCCCN)NC(=O)[C@H](Cc1c[nH]cn1)NC(=O)[C@H](CO)NC(=O)[C@H](CC(C)C)NC(=O)[C@H](CC(N)=O)NC(=O)[C@H](CCC(N)=O)NC(=O)[C@@H](NC(=O)[C@H](CCC(N)=O)NC(=O)[C@@H]1CSSC[C@H](NC(=O)CNC(=O)[C@@H](N)C(C)C)C(=O)N[C@@H](C(C)C)C(=O)N[C@@H](CC(C)C)C(=O)NCC(=O)N[C@@H]([C@@H](C)O)C(=O)N1)C(C)C)C(=O)NCC(=O)N1CCC[C@H]1C(=O)N[C@@H](C)C(=O)NCC(=O)N[C@@H](CCCNC(=N)N)C(=O)N[C@@H](CCC(N)=O)C(=O)N[C@@H](CC(=O)O)C(=O)N[C@@H](CO)C(=O)N[C@@H](C)C(=O)N1CCC[C@H]1C(=O)N[C@H](C(=O)N[C@@H](CC(=O)O)C(=O)N1CCC[C@H]1C(=O)N[C@@H](CO)C(=O)N[C@@H](CO)C(=O)N1CCC[C@H]1C(=O)N[C@@H](Cc1c[nH]cn1)C(=O)N[C@@H](CO)C(=O)N[C@@H](Cc1ccc(O)cc1)C(N)=O)C(C)C — EC50 (Calcitonin-gene-related peptide receptor, CALCRL/RAMP1 (Homo sapiens, UniProt O60894+Q16602); cAMP, agonist, CAMYEL BRET; COS-7; 37 °C): 3.09 nM
CCCC[C@H](NC(=O)[C@H](CO)NC(=O)[C@H](Cc1ccc(O)cc1)NC(=O)[C@H](CO)NC(C)=O)C(=O)N[C@@H](CCC(=O)O)C(=O)N[C@@H](Cc1c[nH]cn1)C(=O)N[C@H](Cc1ccc2ccccc2c1)C(=O)N[C@@H](CCCNC(=N)N)C(=O)N[C@@H](Cc1c[nH]c2ccccc12)C(=O)NCC(=O)N[C@@H](CCCCN)C(=O)N1CCC[C@H]1C(=O)N[C@H](C(=O)NCC(=O)N[C@@H](CCCCN)C(=O)N[C@@H](CCCCN)C(=O)N[C@@H](CCCNC(=N)N)C(N)=O)C(C)C — EC50 (MC3R (Homo sapiens, UniProt P41968, L128M); cAMP production, agonist; mutant receptor): 78 ± 14 nM
COc1ccc(C(=O)Nc2c(-c3cccs3)nc3ccccn23)cc1 — EC50 (Gamma-aminobutyric acid receptor subunit alpha-1/beta-2/delta (Homo sapiens, UniProt O14764+P14867+P47870); positive allosteric modulator, FLIPR membrane potential; HEK293 Flp-In; together with: GABA EC20): 3680 nM
COc1ccccc1OS(=O)(=O)C1CC2OC1C(c1ccc(O)cc1)=C2c1ccc(O)cc1 (racemic) — EC50 (ESR1; reporter gene, agonist, luciferase): 560 nM
CC(C)C[C@H](NC(=O)[C@@H](N)[C@@H](C)O)C(=O)N[C@@H](CCC(N)=O)C(=O)N1CCC[C@H]1C(=O)N1CCC[C@H]1C(=O)N[C@@H](C)C(=O)N[C@@H](CO)C(=O)N[C@@H](CO)C(=O)N[C@@H](CCCNC(=N)N)C(=O)N[C@@H](CCCNC(=N)N)C(=O)N[C@@H](CCCNC(=N)N)C(=O)N[C@@H](Cc1c[nH]cn1)C(=O)N[C@@H](Cc1ccccc1)C(=O)N[C@@H](Cc1c[nH]cn1)C(=O)N[C@@H](Cc1c[nH]cn1)C(=O)N[C@@H](C)C(=O)N[C@@H](CC(C)C)C(=O)N1CCC[C@H]1C(=O)N1CCC[C@H]1C(=O)N[C@@H](C)C(=O)N[C@@H](CCCNC(=N)N)C(=O)O — EC50 (C3AR1; β-arrestin2 recruitment, agonist, BRET; 60 min, 37 °C, together with: GRK2 co-expression): 542 nM
COc1ccc(SCC(=O)c2ccc(O)cc2O)cc1 — EC50 (ESR2 (Homo sapiens, UniProt Q92731); coactivator recruitment, agonist): 3740 nM
CCCn1c(=O)c2[nH]c(-c3ccc(OCC(=O)NCCNC(=O)CCCCCNC(=O)CCCCCNS(=O)(=O)c4cccc5c(N(C)C)cccc45)cc3)nc2n(CCC)c1=O — EC50 (ADORA1; reporter gene, agonist): 158 nM
CCN1C(=O)/C(=C\c2ccc(O)cc2)SC1=S — EC50 (ESR1; coactivator recruitment, agonist): 330 nM
CCCC[C@H](NC=O)C(=O)N[C@@H](CC(C)C)C(=O)N[C@@H](Cc1ccccc1)C(=O)O — EC50 (FPR1; receptor surface downregulation, agonist; CHO cells; 1 h, 37 °C): 50 ± 7 nM
COCCOc1ccc2cc1S(=O)(=O)NCCCNc1nc(ncc1-c1ccc(F)c(OC)c1)N2 — EC50 (FLT1 (Homo sapiens, UniProt P17948); target engagement in cells, BRET): 23000 nM
CC(C)C[C@H](NC(=O)CNC(=O)[C@H](CC(C)C)NC(=O)[C@H](CCCCN)NC(=O)[C@H](CO)NC(=O)[C@H](C)NC(=O)[C@H](CCCN=C(N)N)NC(=O)[C@H](Cc1ccc(O)cc1)NC(=O)[C@H](CCCCN)NC(=O)[C@H](CCCCN)NC(=O)CNC(=O)[C@H](Cc1c[nH]c2ccccc12)NC(=O)[C@@H](N)Cc1c[nH]c2ccccc12)C(=O)N[C@@H](C)C(=O)N[C@@H](CCCN=C(N)N)C(=O)O — EC50 (C3AR1; cAMP, agonist, luciferase): 0.089 nM
CC(C)C[C@H](NC(=O)[C@@H](N)[C@@H](C)O)C(=O)N[C@@H](CCC(N)=O)C(=O)N1CCC[C@H]1C(=O)N1CCC[C@H]1C(=O)N[C@@H](C)C(=O)N[C@@H](CO)C(=O)N[C@@H](CO)C(=O)N[C@@H](CCCNC(=N)N)C(=O)N[C@@H](CCCNC(=N)N)C(=O)N[C@@H](CCCNC(=N)N)C(=O)N[C@@H](Cc1c[nH]cn1)C(=O)N[C@@H](Cc1ccccc1)C(=O)N[C@@H](Cc1c[nH]cn1)C(=O)N[C@@H](Cc1c[nH]cn1)C(=O)N[C@@H](C)C(=O)N[C@@H](CC(C)C)C(=O)N1CCC[C@H]1C(=O)N1CCC[C@H]1C(=O)N[C@@H](C)C(=O)N[C@@H](CCCNC(=N)N)C(=O)O — EC50 (C3AR1; β-arrestin recruitment, agonist): 2300 nM
CC(C)C[C@@H]1NC(=O)[C@H](CCCNC(=N)N)NC(=O)[C@H](C(C)C)NC(=O)[C@H](Cc2c[nH]cn2)NC(=O)[C@H](Cc2c[nH]cn2)NC(=O)CNC(=O)[C@H](CCCCN)NC(=O)[C@H](CC(C)C)NC(=O)[C@H](CC(N)=O)NC(=O)[C@H]([C@@H](C)O)NC(=O)[C@H](CO)NC(=O)[C@H](CC(N)=O)NC(=O)[C@@H]2CCCN2C(=O)[C@H](CO)NC(=O)[C@@H]2CCCN2C(=O)[C@H](C(C)C)NC(=O)[C@H](CCCNC(=N)N)NC(=O)[C@H](Cc2c[nH]cn2)NC(=O)[C@@H]2CSSC[C@H](NC1=O)C(=O)N[C@@H](CCCCN)C(=O)N1CCC[C@H]1C(=O)N[C@H](C(=O)N[C@@H](CCCCN)C(=O)N[C@@H](CC(C)C)C(=O)N[C@@H](CCC(=O)O)C(=O)N1CCC[C@H]1C(=O)N[C@@H](CCC(=O)O)C(=O)N1CCC[C@H]1C(=O)N[C@@H](CCCNC(=N)N)C(=O)N[C@@H](CC(C)C)C(=O)N[C@@H](Cc1c[nH]c3ccccc13)C(=O)N[C@H](C(=O)N[C@H](C(=O)N1CCC[C@H]1C(=O)NCC(=O)N[C@@H](C)C(=O)N[C@@H](CC(C)C)C(=O)N1CCC[C@H]1C(=O)N[C@@H](CCC(N)=O)C(=O)N[C@H](C(=O)O)C(C)C)C(C)C)C(C)C)CSSC[C@H](NC(=O)[C@H](CC(C)C)NC(=O)[C@H](CCCNC(=N)N)NC(=O)[C@@H](NC(=O)[C@H](CCCNC(=N)N)NC(=O)[C@H](CCCNC(=N)N)NC(=O)CNC(=O)[C@H](CO)NC(=O)[C@H](Cc1c[nH]c3ccccc13)NC(=O)[C@H](C)NC(=O)[C@H](CCCCN)NC(=O)[C@H](C)NC(=O)[C@@H]1CCCN1C(=O)[C@H](CCCNC(=N)N)NC(=O)[C@H](CCCNC(=N)N)NC(=O)[C@@H](N)CCCCN)[C@@H](C)O)C(=O)N2 — EC50 (G-protein coupled receptor 15, with Gi1 (Homo sapiens, UniProt P49685); Gi1 activation, agonist, BRET; HEK293A transfected GPR15): 16.2 nM
CCNC(=O)[C@H]1O[C@@H](n2cnc3c(NCCCCNC(=O)CCCCCNC(=O)COc4ccc(/C=C/C5=[N+]6C(=Cc7ccc(-c8cccs8)n7[B-]6(F)F)C=C5)cc4)ncnc32)[C@H](O)[C@@H]1O — EC50 (ADORA1; CRE-SPAP reporter gene, agonist; CHO-A1; Gs enhancement, together with: forskolin): 417 nM
O=C(O)CN(CC(=O)O)[C@@H](CCCCNC(=O)CCCC(=O)NCCOCCOCCOCCOCCC(=O)NCCCNCC(O)c1cccc(O)c1)C(=O)O (some centres unmarked) — EC50 (ADRB2 (Homo sapiens, UniProt P07550); cAMP, agonist, ELISA): 160 nM
N=C(N)NCCC[C@H](NC(=O)[C@H](CC(=O)O)NC(=O)[C@@H]1CSCC(=O)NCC(=O)N[C@@H](Cc2c[nH]cn2)C(=O)N[C@H](Cc2ccccc2)C(=O)N[C@@H](CCCNC(=N)N)C(=O)N[C@@H](Cc2c[nH]c3ccccc23)C(=O)N1)C(=O)N[C@@H](Cc1ccccc1)C(=O)NCC(N)=O — EC50 (MC3R (Homo sapiens, UniProt P41968); cAMP, agonist): 195 nM
O=C(c1cc2c(s1)CCCCC2)N1CCC(n2c(=O)[nH]c3ccccc32)CC1 — EC50 (Trpc6 (Mus musculus, UniProt Q61143, E671C); channel activation, agonist, whole-cell patch clamp): 6630 ± 400 nM
COc1cc(/C=C2\Cc3ccccc3C2=O)ccc1O — EC50 (ESR1; coactivator recruitment, agonist): 2360 nM
N=C(N)NCCC[C@H](NC(=O)[C@H](Cc1ccccc1)NC(=O)[C@@H](N)CO)C(=O)N[C@@H](CC(N)=O)C(N)=O — EC50 (Neuropeptide S receptor (Mus musculus, UniProt Q8BZP8); calcium signal, agonist): 66.6 nM
COc1ccc(OC)c2sc(N(CCN(C)C)C(=O)c3ccc4ccccc4c3)nc12 — EC50 (Trpc6 (Mus musculus, UniProt Q61143); calcium signal, agonist, fluorescence): ~70800 nM and 70800 nM
CCNC(=O)[C@H]1O[C@@H](n2cnc3c(NCCCCNC(=O)CCCCCCCNS(=O)(=O)c4cccc5c(N(C)C)cccc45)ncnc32)[C@H](O)[C@@H]1O — EC50 (ADORA1; reporter gene, agonist): > 1000 nM
CC/C(=C(\c1ccccc1)c1ccc(OCCN(C)CCCCCC(=O)NCCc2c[nH]c3ccc(OC)cc23)cc1)c1ccccc1 — EC50 (MTNR1A (Homo sapiens, UniProt P48039); phosphorylation in cells, agonist, AlphaScreen): 807 nM
CCNC(=O)[C@H]1O[C@@H](n2cnc3c(NCCCCCCCCNC(=O)CCCCCNC(=O)COc4ccc(/C=C/C5=[N+]6C(=Cc7ccc(-c8cccs8)n7[B-]6(F)F)C=C5)cc4)ncnc32)[C@H](O)[C@@H]1O — EC50 (ADORA1; reporter gene, agonist): > 10000 nM
CCc1ccccc1OS(=O)(=O)C1CC2OC1C(c1ccc(O)cc1)=C2c1ccc(O)cc1 (racemic) — EC50 (ESR1; reporter gene, agonist, luciferase): 390 nM

Repeated from above:
O=C(O)CN(CC(=O)O)[C@@H](CCCCNC(=O)CCCC(=O)NCCOCCOCCOCCOCCC(=O)NCCCNCC(O)c1cccc(O)c1)C(=O)O (some centres unmarked) — EC50 (ADRB2 (Homo sapiens, UniProt P07550); cAMP, agonist, ELISA): 160 nM
N=C(N)NCCC[C@H](NC(=O)[C@H](CC(=O)O)NC(=O)[C@@H]1CSCC(=O)NCC(=O)N[C@@H](Cc2c[nH]cn2)C(=O)N[C@H](Cc2ccccc2)C(=O)N[C@@H](CCCNC(=N)N)C(=O)N[C@@H](Cc2c[nH]c3ccccc23)C(=O)N1)C(=O)N[C@@H](Cc1ccccc1)C(=O)NCC(N)=O — EC50 (MC3R (Homo sapiens, UniProt P41968); cAMP, agonist): 195 nM
O=C(c1cc2c(s1)CCCCC2)N1CCC(n2c(=O)[nH]c3ccccc32)CC1 — EC50 (Trpc6 (Mus musculus, UniProt Q61143, E671C); channel activation, agonist, whole-cell patch clamp): 6630 ± 400 nM
COc1cc(/C=C2\Cc3ccccc3C2=O)ccc1O — EC50 (ESR1; coactivator recruitment, agonist): 2360 nM
